Published values from different studies.
Lines come from different studies, so protocols differ.

Structure (SMILES) = Cc1noc2c1-c1ccccc1C(c1ccc(Cl)cc1)=N[C@H]2CC(N)=O; test system = mouse, MV4-11 subcutaneous xenograft; setting = 120 mg/kg, 14 days; tumour growth inhibition = 112%
Structure (SMILES) = Cc1[nH]nc2c1N=C(c1ccccc1Cl)c1cnc(N3CCOCC3)cc1N2; test system = mouse HCC1806 TNBC xenograft; setting = oral, 5 mg/kg once daily; tumour growth inhibition = 61.5%
Structure (SMILES) = COC(=O)C1CN1S(=O)(=O)c1ccc2cc(C)ccc2c1 (stereo not shown); test system = mouse, Lewis lung carcinoma; setting = ip, 100 mg/kg, 360 h; tumour growth inhibition = 58%
Structure (SMILES) = CC(C)c1ccc(N(C)c2ccc3c(c2)OCC[C@H]3CNc2cnccc2C(=O)O)cc1; test system = mouse, OCI-LY19 xenograft; setting = 50 mg/kg QD, day 21; tumour growth inhibition = 90%
Structure (SMILES) = CC1(C)CCC(CN2CCN(c3ccc(C(=O)NS(=O)(=O)c4ccc(NCC5CCOCC5)c([N+](=O)[O-])c4)c(Oc4cnc5[nH]ccc5c4)c3)CC2)=C(c2ccc(Cl)cc2)C1; test system = mouse Toledo xenograft; setting = oral, 15 mg/kg once daily, day 31; tumour growth inhibition = 50%
Structure (SMILES) = Cc1cc(NC(=O)C(=O)N2C[C@@H](C)CC[C@@H]2c2ccc3scnc3c2)cnc1N; test = bioluminescence; test system = mouse, U-87 MG MTAP-null orthotopic glioblastoma; setting = 120 mg/kg twice daily, day 20; tumour growth inhibition = 89%
Structure (SMILES) = CC(C)c1ccccc1[C@@H]1CCCN1C1CC2(CCN(c3ccc(C(=O)NS(=O)(=O)c4ccc(NC[C@H]5CC[C@](C)(O)CC5)c([N+](=O)[O-])c4)c(Oc4cnc5[nH]ccc5c4)c3)CC2)C1; test system = mouse Toledo xenograft; setting = oral, 5 mg/kg once daily, day 31; tumour growth inhibition = 60%
Structure (SMILES) = COc1c(Cl)cccc1Nc1c(-c2ccncc2C#C[C@@]2(C)CCCN2C(=O)/C=C/CN(C)C)[nH]c2c1C(=O)NCC2; test system = female NOD/SCID mouse, PDX; setting = 100 mg/kg once daily, 21 days, HER2 YVMA; tumour growth inhibition = 130%
Structure (SMILES) = CCCCCc1ccc(S(=O)(=O)N2CC2C(=O)OC)cc1 (stereo not shown); test system = mouse, Lewis lung carcinoma; setting = intraperitoneal, 5 mg/kg, 16 doses, day 10; tumour growth inhibition = 48%
Structure (SMILES) = C=CC(=O)N1CC2C(=O)N(CCN(C)C)c3c(c4cc(Cl)c(-c5c(O)cccc5F)nc4n(-c4c(C)ccnc4C(C)C)c3=O)N2CC1C (stereo not shown); test system = NCI-H358, mouse xenograft; setting = oral, 100 mg/kg once daily; tumour growth inhibition = 112%

Some of these lines once more:
Structure (SMILES) = CC(C)c1ccccc1[C@@H]1CCCN1C1CC2(CCN(c3ccc(C(=O)NS(=O)(=O)c4ccc(NC[C@H]5CC[C@](C)(O)CC5)c([N+](=O)[O-])c4)c(Oc4cnc5[nH]ccc5c4)c3)CC2)C1; test system = mouse Toledo xenograft; setting = oral, 5 mg/kg once daily, day 31; tumour growth inhibition = 60%
